Experimental data from different studies.
Each line is one published result; not all experiments were run side by side. ± marks the error that the study gave.
BAZ2A eAT-hook: BAZ2A eAT-hook (Mus musculus, UniProt Q91YE5)
Chain of UniProt Q91YE5 (whole entry, looked up): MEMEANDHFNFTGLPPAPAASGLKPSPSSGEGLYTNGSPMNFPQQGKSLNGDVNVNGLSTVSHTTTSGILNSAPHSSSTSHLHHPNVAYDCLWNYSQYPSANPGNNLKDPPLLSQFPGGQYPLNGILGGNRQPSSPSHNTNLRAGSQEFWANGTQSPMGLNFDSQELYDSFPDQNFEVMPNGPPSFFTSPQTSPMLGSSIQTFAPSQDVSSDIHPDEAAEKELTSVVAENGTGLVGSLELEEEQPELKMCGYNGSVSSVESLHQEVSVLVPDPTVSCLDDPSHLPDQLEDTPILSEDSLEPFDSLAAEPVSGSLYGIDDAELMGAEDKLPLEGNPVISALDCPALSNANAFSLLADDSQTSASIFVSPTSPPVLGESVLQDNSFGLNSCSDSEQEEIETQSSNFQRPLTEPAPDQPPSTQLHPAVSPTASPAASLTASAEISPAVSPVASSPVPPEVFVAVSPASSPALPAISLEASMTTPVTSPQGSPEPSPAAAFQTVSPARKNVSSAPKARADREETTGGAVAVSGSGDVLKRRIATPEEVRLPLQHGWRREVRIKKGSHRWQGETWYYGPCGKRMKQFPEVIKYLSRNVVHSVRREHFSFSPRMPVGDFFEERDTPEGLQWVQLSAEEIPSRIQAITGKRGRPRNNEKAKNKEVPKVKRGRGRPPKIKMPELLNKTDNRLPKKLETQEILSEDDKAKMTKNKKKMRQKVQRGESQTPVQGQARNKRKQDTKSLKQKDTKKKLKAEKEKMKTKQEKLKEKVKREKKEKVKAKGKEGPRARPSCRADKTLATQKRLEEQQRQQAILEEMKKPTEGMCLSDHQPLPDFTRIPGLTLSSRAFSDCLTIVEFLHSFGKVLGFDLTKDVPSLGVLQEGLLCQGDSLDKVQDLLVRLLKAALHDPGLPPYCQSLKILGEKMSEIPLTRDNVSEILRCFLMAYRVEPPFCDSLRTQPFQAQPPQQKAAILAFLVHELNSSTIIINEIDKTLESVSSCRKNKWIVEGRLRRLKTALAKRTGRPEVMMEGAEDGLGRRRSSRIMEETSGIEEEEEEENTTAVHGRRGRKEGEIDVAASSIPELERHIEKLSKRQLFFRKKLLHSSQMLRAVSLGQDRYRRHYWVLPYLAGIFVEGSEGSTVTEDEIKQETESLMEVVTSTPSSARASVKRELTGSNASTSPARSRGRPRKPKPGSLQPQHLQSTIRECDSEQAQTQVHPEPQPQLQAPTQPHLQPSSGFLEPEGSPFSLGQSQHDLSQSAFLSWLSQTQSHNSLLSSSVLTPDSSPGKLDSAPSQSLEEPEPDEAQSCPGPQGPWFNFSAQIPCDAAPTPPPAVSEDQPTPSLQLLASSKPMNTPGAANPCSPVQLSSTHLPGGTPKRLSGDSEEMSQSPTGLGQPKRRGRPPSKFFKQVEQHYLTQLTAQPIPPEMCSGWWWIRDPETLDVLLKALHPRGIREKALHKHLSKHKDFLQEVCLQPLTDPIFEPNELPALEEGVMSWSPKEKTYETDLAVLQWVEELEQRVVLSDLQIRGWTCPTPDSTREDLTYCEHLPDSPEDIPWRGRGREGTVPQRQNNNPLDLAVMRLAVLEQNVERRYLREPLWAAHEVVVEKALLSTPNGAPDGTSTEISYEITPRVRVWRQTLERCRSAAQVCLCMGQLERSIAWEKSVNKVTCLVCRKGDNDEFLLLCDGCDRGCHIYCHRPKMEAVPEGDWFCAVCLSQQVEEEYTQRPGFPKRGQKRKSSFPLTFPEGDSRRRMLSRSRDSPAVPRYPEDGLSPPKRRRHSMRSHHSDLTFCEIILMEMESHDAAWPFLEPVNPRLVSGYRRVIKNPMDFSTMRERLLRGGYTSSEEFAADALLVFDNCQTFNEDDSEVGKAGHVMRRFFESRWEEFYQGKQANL
ELAVL1 full length assumed: ELAVL1 full length assumed (Homo sapiens, UniProt Q15717)
Chain of UniProt Q15717 (whole entry, looked up): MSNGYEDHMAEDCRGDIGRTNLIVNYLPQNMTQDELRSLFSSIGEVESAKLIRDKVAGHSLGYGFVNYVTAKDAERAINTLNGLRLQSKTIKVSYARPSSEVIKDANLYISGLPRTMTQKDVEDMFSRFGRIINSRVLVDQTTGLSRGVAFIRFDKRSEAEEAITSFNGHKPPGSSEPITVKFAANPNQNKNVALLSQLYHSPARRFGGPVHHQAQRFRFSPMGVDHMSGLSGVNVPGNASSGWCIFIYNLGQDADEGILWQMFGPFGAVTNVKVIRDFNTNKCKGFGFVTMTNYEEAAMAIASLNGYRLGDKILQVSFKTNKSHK
Chain of UniProt Q9LPI7 (whole entry, looked up): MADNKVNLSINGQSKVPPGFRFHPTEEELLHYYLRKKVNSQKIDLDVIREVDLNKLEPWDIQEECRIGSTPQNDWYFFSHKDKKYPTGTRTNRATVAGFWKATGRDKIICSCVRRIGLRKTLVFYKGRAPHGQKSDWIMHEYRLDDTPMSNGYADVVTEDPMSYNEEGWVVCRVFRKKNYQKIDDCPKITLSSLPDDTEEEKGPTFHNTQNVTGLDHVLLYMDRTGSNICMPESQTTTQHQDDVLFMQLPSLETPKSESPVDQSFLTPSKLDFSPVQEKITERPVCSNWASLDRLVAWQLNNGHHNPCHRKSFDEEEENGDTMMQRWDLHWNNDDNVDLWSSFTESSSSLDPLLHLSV
Chain of UniProt P19466 (whole entry, unmodified, looked up): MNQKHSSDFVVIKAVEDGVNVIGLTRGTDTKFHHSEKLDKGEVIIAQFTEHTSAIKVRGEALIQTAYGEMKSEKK
Chain of UniProt O60656 (whole entry, looked up): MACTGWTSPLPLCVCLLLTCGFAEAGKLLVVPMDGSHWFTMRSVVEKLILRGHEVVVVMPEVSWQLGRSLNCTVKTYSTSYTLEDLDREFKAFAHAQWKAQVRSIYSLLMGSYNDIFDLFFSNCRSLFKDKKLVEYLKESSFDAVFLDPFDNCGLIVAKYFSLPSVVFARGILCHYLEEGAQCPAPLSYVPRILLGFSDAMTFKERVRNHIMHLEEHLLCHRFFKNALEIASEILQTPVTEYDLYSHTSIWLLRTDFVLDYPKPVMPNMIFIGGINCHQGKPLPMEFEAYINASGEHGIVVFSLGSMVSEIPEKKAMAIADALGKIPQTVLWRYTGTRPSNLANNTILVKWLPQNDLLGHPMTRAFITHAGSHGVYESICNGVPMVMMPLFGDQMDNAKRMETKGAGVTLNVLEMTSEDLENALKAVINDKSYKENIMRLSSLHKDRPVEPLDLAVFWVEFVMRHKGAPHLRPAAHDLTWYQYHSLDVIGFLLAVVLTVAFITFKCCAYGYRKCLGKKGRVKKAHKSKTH
Chain of UniProt P19525 (whole entry, looked up): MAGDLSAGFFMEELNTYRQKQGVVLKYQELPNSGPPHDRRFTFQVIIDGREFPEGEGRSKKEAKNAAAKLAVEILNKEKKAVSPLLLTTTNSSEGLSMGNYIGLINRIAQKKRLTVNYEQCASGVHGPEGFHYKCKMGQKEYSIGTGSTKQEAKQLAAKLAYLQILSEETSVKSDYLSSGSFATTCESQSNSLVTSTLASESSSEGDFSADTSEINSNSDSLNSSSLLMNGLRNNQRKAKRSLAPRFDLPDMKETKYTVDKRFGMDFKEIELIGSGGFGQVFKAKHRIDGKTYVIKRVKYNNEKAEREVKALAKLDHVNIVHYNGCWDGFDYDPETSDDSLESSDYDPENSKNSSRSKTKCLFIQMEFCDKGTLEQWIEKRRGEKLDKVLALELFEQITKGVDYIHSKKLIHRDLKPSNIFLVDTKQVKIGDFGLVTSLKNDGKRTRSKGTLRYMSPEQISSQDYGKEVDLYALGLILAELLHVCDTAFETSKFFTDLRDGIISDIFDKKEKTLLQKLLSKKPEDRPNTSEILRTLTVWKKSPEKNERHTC
Chain of UniProt Q04609 (whole entry, looked up): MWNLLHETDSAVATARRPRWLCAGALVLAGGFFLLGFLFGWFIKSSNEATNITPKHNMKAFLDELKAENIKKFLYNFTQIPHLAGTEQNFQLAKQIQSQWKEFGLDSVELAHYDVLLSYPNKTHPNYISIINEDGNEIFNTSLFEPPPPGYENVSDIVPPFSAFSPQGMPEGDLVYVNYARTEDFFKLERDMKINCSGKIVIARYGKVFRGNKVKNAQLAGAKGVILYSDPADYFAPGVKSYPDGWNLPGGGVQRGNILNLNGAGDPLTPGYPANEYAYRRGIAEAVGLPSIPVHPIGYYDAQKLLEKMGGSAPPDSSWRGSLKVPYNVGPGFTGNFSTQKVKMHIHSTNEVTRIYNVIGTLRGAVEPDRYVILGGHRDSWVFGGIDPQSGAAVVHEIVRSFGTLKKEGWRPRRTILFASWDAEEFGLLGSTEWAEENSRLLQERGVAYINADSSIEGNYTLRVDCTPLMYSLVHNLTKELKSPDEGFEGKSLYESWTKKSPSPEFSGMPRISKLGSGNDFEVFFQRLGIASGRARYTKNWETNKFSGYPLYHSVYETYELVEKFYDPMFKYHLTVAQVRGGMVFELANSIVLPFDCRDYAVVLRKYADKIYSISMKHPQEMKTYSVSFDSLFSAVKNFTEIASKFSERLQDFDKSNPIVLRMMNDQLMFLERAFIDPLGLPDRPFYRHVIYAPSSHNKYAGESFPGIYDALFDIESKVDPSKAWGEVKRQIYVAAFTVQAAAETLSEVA
Chain of UniProt P06224 (whole entry, looked up): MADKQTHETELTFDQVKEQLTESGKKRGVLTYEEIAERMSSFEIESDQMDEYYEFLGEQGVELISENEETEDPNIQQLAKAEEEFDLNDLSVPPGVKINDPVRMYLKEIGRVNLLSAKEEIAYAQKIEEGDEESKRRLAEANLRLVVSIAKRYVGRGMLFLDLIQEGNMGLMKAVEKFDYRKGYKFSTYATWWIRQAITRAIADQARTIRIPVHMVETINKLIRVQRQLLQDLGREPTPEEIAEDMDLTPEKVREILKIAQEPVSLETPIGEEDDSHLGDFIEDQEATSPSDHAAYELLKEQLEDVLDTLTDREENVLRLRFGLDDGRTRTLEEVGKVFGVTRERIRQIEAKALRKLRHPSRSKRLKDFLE

For `GGGAGACCUAGCCUCAUAUAAUCGUUGUCCAGAAUUGUAUAUAUUCGUAGCAUAAGUUUUCCAAACAUUAUUUUGUUGUCGAAAAUUGUACAUAAGCCAAUUAAGCCGCUAAUUCU (ssRNA)`, binding read “no binding” (brat 756-1037 H802L (Drosophila melanogaster, UniProt Q8MQJ9); EMSA).
`GAGAAACCGUGUAAACAAAACAUAACUGAGAGG (structured RNA; hairpin, large loop)` gave a K1/2 of 569 ± 40 nM (BAZ2A eAT-hook; MST; 50 nM RNA).
For `UGT1A9 (Homo sapiens, UniProt O60656)`, the Km was 1.72 µM (O=C(/C=C/c1ccccc1)c1ccc(O)cc1; steady-state kinetics; pH 7.4, 37 °C).
The relative binding of `GGGAGGACGAUGCGGAUCAGCCAUGUUUACGUCACUCCU (RNA aptamer; 2'-F pyrimidines, 3' amine)` is reported as 40.6 ± 3.52% (FOLH1 1-750 (Homo sapiens, UniProt Q04609); flow cytometry; LNCaP; no ultrasound, not purified; relative to: NBs without aptamer, higher = more binding).
Under binding, `GGGAAGGGUUUAAACAGUUUGAAAUAUUCUGUCUUCAUUUCUGUAAUAGUUAAUAUCUGGCUGUCCUUUUUAUAAUGCAAAGUGAGAACUUUCCCUACUGUGUUUGAUAAAUGUUGUCCAGGUUCACUUGCCAAGAAUGUGUUGUCUAAAAUG (ssRNA)` is recorded as “binds” (ELAVL1 full length assumed; EMSA).
Under binding, `CTATTTCTCCTGGTAAGGAATCATCTGGTACATTTACATCATTACCACATATTGGACATTTTAATAGTACCATGATGGATCGAATAGAAATATAAAGTAAGCAGTTGAAAAGCTTTTATGAAATAAAAGGTTCGAAATTAGTACCAAACTCTAAGCACTATAGTACTGTTTGTACTTATAACGCCCTG (dsDNA)` is recorded as “binds” (lysM 1-140 (Sulfolobus acidocaldarius, UniProt Q4JAQ1); Cu-OP in-gel footprinting; double-stranded DNA, one strand shown).
`AGUUCCAUGAUGUUUUCAAACUCUAUUACCUACAUUAUUUGAAC (structured RNA; hairpin, large stem-loop)` gave a K1/2 of 277 ± 8 nM (BAZ2A eAT-hook; competition, MST; competition with DNA).
`TGTGAATAATGAGACAAGACTTATTATATCAGCCTTGATTTGCAGTGTCAAGAGGTAAATGTTTTTATTTATCTCTCGTGACGACTTTTATAATG (dsDNA)`: binding “binds” (sigA 1-371 (Bacillus subtilis, UniProt P06224); competition with labeled DNA, competition EMSA; double-stranded DNA, one strand shown).
With `GGGAGAGGCAAGUCGUUCGGUCGCGUUCGCUGUCGUCGCGUCUUGUAUGCCACUGUACCC / GGGTACAGTGGCATACAAGACGCGACGACAGCGAACGCGACCGAACGACTTGCCTCTCCC (chimeric DNA/RNA duplex; blunt, strand 2 RNA 23-38)` the Kd was 3500 ± 500 nM (EIF2AK2 1-184 (Homo sapiens, UniProt P19525); ITC; 20 °C, weak sites, two-site fit).
For `GAGUUGAGUUGAGUUGAGUUGAGUUGAGUUGAGUUGAGUUGAGUUGAGUUGAGUU (ssRNA; single strand)`, the Kd was 92 ± 4 nM (mtrB full length assumed T30V/K37A (Bacillus subtilis, UniProt P19466); filter binding; with: no tryptophan).
For `GTGTCATAAGAAAGCTTCAAGAGACAGCAACAAGATTTGGTGGAAGAAGGAGACAGCTCAGTGTAGTTAGTGTTTTTATATAATTTAATTGCTTGAGCTTCCAACTTCTACTGTTTGTTATTCTTTTGAGTTCTTTAGAATTTGTATAACTTAGAGTAGCTTTCAAGTTATTATGTATTTCTACTTTAGTCTTACTTAATATTTTGTATCTTATAAACTTTACCAAATCTGG (dsDNA (Arabidopsis thaliana))`, binding read “binds” (NAC012 full length assumed (Arabidopsis thaliana, UniProt Q9LPI7); EMSA; double-stranded DNA, one strand shown).
Under binding, `GGGAGCAUCACGUCUUUGUCUCUAGUGCAGUUUUUCGAGAUAUUCCGUAGUACAUAUUUAUUUUUAAACAAC (ssRNA)` is recorded as “binds” (SOD1 fragment G94A (Homo sapiens); EMSA; metallated).
For `GGGAAGUCUAAUGAUCAUAUUUAUUUAUUUAUAUGAACCAUGUCUAUUAAUUUAAUUAUUUAAUAAUAUUUAUAUUAAACUCCUUAUGUUACUUAACAUCUUCUGUAACAGAAGUCAGUACUCCUGUUGCGGAGAAAGGAGUCAUACUUGUGAUCUAGACU (ssRNA)`, binding read “binds” (ELAVL1 full length assumed; EMSA; 200 nM).

Some of these lines once more:
For `GGGAGACCUAGCCUCAUAUAAUCGUUGUCCAGAAUUGUAUAUAUUCGUAGCAUAAGUUUUCCAAACAUUAUUUUGUUGUCGAAAAUUGUACAUAAGCCAAUUAAGCCGCUAAUUCU (ssRNA)`, binding read “no binding” (brat 756-1037 H802L (Drosophila melanogaster, UniProt Q8MQJ9); EMSA).
